Experimental data collected from several papers.
Each numbered part is a random draw from the data of one study; scales do not carry over between parts.

Study 1
Target: Transcription factor SOX-2, HMG box (SOX2, Homo sapiens, UniProt P48431, residues 19-118)
Sequence of UniProt P48431 (19-118, looked up): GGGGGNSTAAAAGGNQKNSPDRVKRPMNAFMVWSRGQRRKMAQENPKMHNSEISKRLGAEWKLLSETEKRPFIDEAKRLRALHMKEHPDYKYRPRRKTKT
Technique: protein-binding microarray
Form: double-stranded DNA, one strand shown
Medium: in vitro
Tested at: not given
Setting: k-mer, scored over probes, only values ≥0.25
Reading: higher = stronger binding
Sequence	E-score
AGAATTA	0.322
TAATACA	0.294
CTTTTCA	0.331
ATTCAAT	0.456
TAATATA	0.287
AATTCAC	0.414
AATGTAA	0.335
CAATCAA	0.331
ATTATAG	0.269
AATGGAG	0.253
AAAGAAA	0.286
ATGTGAA	0.349
CAATGCG	0.287
AATATGT	0.258
CTTTGTA	0.252
AATAAAT	0.378
AAAACGG	0.329
CAATAGA	0.389
ATGTATA	0.321
TAACAAA	0.378
AATCAGC	0.32

Study 2
Target: Phosphate system positive regulatory protein PHO4, full length, GST-tagged (PHO4, Saccharomyces cerevisiae, UniProt P07270, residues 1-312)
Technique: competition protein-binding microarray
Form: double-stranded DNA, one strand shown
Medium: in vitro
Tested at: 2 µM
Setting: whole 60-bp probe, lowest competitor level
Added: Cbf1 competitor, 0.05 µM
Reading: higher = stronger binding
Constant ends, left off below: … GTCTTGATTCGCTTGACGCTGCTG
Target sequence (chain): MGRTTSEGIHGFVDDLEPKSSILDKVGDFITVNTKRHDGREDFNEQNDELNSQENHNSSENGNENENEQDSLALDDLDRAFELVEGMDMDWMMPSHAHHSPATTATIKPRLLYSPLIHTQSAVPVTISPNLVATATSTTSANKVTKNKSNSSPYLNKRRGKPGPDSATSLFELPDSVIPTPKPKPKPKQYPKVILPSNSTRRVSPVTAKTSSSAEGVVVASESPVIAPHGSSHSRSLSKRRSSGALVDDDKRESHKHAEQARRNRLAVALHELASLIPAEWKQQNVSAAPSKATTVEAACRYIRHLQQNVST
Sequence	fluorescence intensity
AAAGCGGTAATTTGTCACTGGACTTCACATATCTAT	2710 a.u.
CATACCCAACCTTGGGTCGTGGGTGAAGATATTTGT	10100 a.u.
AAATTACTAAGTTTTCACGTGGAATACCCCGTATGA	12600 a.u.
CTTCTGTAAATTTTTCACGTGCGTTGACGCGCCCCG	13900 a.u.
ACTTTGGAAACTGTTTCCGTGATGGTTTCAGTGCCA	3500 a.u.
TCACTTTGTCGTCTTCATGTGGGAGTCGGGGCTGTT	5300 a.u.
AACCAGACGAGGTATTGCATGACGCGGAAATCGCAA	4890 a.u.
TCCGAGGTTAGAGTGCCCGTGATGGACCTTTACGAA	5970 a.u.
CTAACGAAGGTTTGGGGAGTGGGTGACAAGCCAAGT	4670 a.u.
CTTCTGTAAATTTGAACGGTGGGTGGACGCGCCCCG	4310 a.u.
GTCTTGTCTCATTGGAGGGTGGGTGTCCCCACTTCA	4650 a.u.
TTGATATCTGAAGTTGCTCCCAAACAAATCAGAGGA	3020 a.u.
ACAGTCTTTCCGTTACACGCACACACTTGTTTATTA	8340 a.u.
TGCGCAACAACTTGCCTTGTGGGTGTATGTCTAGAA	6180 a.u.
TGCGCAACAACTTTTCACGTGCATTTATGTCTAGAA	14800 a.u.
GATTGATATATCGGCCACGTTTGAGGACCAAGTTGC	10800 a.u.
CGATCTGGATATCACCACGCAGATCGACTCTTACAT	6800 a.u.
GTACTAATTACACTGCAAGTGTGCCTATTCTTCCTT	6070 a.u.
CTTTCCCGATCTTGAACCGTGGGTGTAGCACATTTG	7430 a.u.

Study 3
Target: RING finger protein unkempt homolog, zinc fingers 1-6, GST-SBP tag (UNK, Homo sapiens, UniProt Q9C0B0, residues 30-357)
Sequence of UniProt Q9C0B0 (30-357, looked up): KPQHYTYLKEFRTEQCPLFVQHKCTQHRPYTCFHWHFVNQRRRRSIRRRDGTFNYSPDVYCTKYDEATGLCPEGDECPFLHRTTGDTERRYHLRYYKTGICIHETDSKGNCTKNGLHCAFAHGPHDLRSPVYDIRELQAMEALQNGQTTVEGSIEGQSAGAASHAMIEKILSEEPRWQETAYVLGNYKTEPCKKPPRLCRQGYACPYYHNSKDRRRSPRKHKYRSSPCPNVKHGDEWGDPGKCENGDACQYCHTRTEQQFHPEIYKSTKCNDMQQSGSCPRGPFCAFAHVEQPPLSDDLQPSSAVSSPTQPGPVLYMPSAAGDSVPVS
Technique: RNA Bind-n-Seq
Form: RNA
Medium: in vitro
Tested at: not given
Setting: RNA with constant flanks, ends assumed
Relative to: input RNA pool
Reading: higher = stronger binding
Constant ends, left off below: GGGAGUUCUACAGUCCGACGAUC … CAACAGAGGAUUGAGCAUCA
Sequence	bound/input enrichment
AUGGAUGACAAGGCCUCUGUUGGAAAAAUCAGUGUCUCAUCAGACUCAGUGUCUACUCUUAACCGUGAAGAUUUUGUCUUGGUUUCCAGGCAAGGAGAUGAGACACCAUCUACAAAUAAU	0.224 ratio
UUCUCCUCAUUAUUUAAAAAUGCUAAACCUUGUAUCUCACUUUUUCUCUAACACUGAUUUAACCGCUAACGAGGUAGAAGCAACAUUCAUUCUCCUGGUCUUACAUAUGAAUUUAAGUAU	0.364 ratio
UUGACAAAAGUACCAUGGAGUUUUAUGAGUCAGCAUAUUUUAUUGUUCUUAUUCCUUCAACCGUUAUUACAGUAAUUUUCCUCUUCUUCUGGCUUUUCAUGAAAGAAACAUUAUAUGAUG	0.341 ratio
GAUAGAUUGACGUGUAGAGACUGUCAACUUUUGGAGCACAAAGAACAUAGGUAUCAGUUUUCCGAAGAGGCUUUUCAAAAUCAGAAAGGUGCAAUUGAAAAUCUGUUGGCUAAGCUUCUU	0.199 ratio
AUCGCUGUUGGAUCCAUCUCCUUCCUUCUGGGAGUUGUACUGCUAGUAAUUAAUCAUAAAUACCGAAACAGUAGUAAUACAGCUGACAUUACCAUUUAAUUUUAUAUUAUGAAAGCAAAU	0.608 ratio
AGUAUAUGUAAAUGUCUGUUUUUCAUAAUUGCUCUUUAUAUUGUGUGUUAUCUGACAAGACCGUUAUUUAAGAAACAUGGGAAUUGCAGAAAUGACUGCAGUGCAGCAGUAAUUAUGGUG	0.229 ratio
CUGAAAUUCUCUCCAAUUAAAUAUGGCUACCAGCCUCGCAGGAAUUUUUGGCCAGCAAGAUCCGCUACGAGACUCUUAAAACUUCGCUAUCUCAUACUAGGAUCGGCUGUUGGGGGUGGC	0.639 ratio
UUUGAAGUACCUGGUCUUAGCAUCUGGACAGACCUCUUAUUAGCUCUUCGUAGUGGUGCAUUCCGGAAAAGACAAGUUUUGGGUCUCAGCGCAGGCCUCAGUUCUGUAUAGGCAAUGCUG	1.76 ratio

Study 4
Target: RNA binding protein fox-1 homolog 2, RRM domain, GST-SBP tag (RBFOX2, Homo sapiens, UniProt O43251-10, residues 100-194)
Technique: RNA Bind-n-Seq
Form: RNA
Medium: in vitro
Tested at: 365 nM
Setting: natural RNA segment, single round, ends assumed
Relative to: no-protein control
Reading: higher = stronger binding
Constant ends, left off below: GGGAGUUCUACAGUCCGACGAUC … UGGAAUUCUCGGGUGCCAA
Target sequence (chain): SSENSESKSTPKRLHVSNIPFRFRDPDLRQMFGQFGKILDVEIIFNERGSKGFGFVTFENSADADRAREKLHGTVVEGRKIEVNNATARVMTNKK
Sequence	RBNS enrichment (R)
CCGGGGCCUGCCAAGCUUUUCCAUACUUCCAGAUGAUGUUAUAAGGCAUUAAACAGCCACCAUCGCAUAGAACCUUCCCUGUAACCCAGACAUUGUCAAGGAAGAUAUAC	0.668
GUUUUCUCUGUAAGAAAAUAUGGCCGUCACCCCCGCCCACCAAAAAAAAAUGAUUUGCUCUUUGUGAACACACAAUUAUGAAUUUCAUGGCGAUGUUAACAAUUCUGCAU	0.502
UAUUCUGAACAAACGCUUGCACUGACCAAAGCUUGUGUUUAGCGUGUGUUUAGCAUAGGUGCUGUAGUUGGAGUGGGCCCCACCUCUGCUCCUUUCAGUGUUCUUGCUGU	0.278
ACUAGUAUGUGUGCGUGAGCUGGUCAGUUGCCAAAGGAGGAAAUAAGGUUAGAAGCCUGAACCGUUACAAAAGAAGAGCUCACUAUGGUCAAAAAGUGAUGGCUUUCAGG	1.22
UACUGUUUGAGACAUUAUGGAGAGAUUUAAUUAUUUGUAAUAAAAGAUUUGCUGCAGUCUGAAAACUCCCAGGGGUGCACUGUUGGGUUUUUCUUUAAAAUAGAGUACUU	0.748
UGGAGGCUUGCCAGAGAAGGUGGAGAAUGAAGUAGAACUCAGCUUCCCUCUCAGAGCCUGUGCCCGAAUCUUUAAUGUUCUCUGGGUGAAAGGUCCUGGGGAGAGCUUCG	1.17
GCUGACCACAUAUUAUGCCAGUGACCAGUAUGACAGGAGAUGGGGCCCUGCUGCCAGUCAUCUCCACUGAAUAAAGAAUAAUGCUCCUCUUUCAGGGUAAUAAAGUGGGG	0.457
GGGGAGCCUCUUUUCUCAGGCUUGACACCUGUCUGAAUAAGAGUGAUUAGAGCCGCAUAAUAUCCCUCUCUUGGCUAUUGAAUAAGUGGUUCACAUACCCAACCCUGUAG	0.339

Excerpt of the above (study 1):
Sequence	E-score
AATATGT	0.258
CTTTGTA	0.252
AATAAAT	0.378
AAAACGG	0.329
CAATAGA	0.389
ATGTATA	0.321
TAACAAA	0.378
